Assay results pooled from the literature.
Parts stem from different laboratories: compare values within a part only. Positions count from the first letter of the parent shown.

Series 1 — technique: RNA Bind-n-Seq; form: RNA; sample: in vitro; tested at: 200 nM; setting: whole 134-nt RNA, ends assumed; added: 150 mM LiCl; reference: input library; reading: higher = stronger binding; measurement: log2 enrichment; library: 7-deaza-guanosine replaces G
Target: Ras GTPase-activating protein-binding protein 1, full length (G3BP1, Homo sapiens, UniProt Q13283)
UniProt Q13283, sequence (whole entry, looked up): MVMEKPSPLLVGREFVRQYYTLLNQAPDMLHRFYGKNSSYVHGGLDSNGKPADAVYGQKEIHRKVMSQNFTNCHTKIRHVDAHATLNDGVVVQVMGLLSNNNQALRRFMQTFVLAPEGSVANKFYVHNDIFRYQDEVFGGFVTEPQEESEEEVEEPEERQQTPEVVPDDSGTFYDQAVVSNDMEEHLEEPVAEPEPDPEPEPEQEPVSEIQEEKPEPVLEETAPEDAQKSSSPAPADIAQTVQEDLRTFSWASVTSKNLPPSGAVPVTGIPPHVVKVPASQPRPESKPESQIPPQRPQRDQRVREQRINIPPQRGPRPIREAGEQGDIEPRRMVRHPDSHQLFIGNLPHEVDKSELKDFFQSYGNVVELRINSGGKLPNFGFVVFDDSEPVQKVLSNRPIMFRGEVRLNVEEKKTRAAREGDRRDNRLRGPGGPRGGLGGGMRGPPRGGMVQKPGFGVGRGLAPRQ
Shared flanks, not repeated: GGGAGUUCUACAGUCCGACGAUC … UGGAAUUCUCGGGUGUCAAGG
CUGUGCUACACAUCGUAUGUACCGAAUCGGGUUUUUUUGGGUUUUUUUGGGUUUUUUUGGGGAAAGUAUUAUGUUACGCCGUUCGGAUCU: 1.49
GUCCUGUGCUACACAUCGUAUGUACCGAAUCGGGUGGGAAAAAAAGGGUUUUUUUGGGAAAGUAUUAUGUUACGCCGUUCGGAUCUGCAC: -0.569
UGGGAGGUGGAUUUUGUUUAUUUUUUUAGCUCAUUUCCAGGGGUGGGAAUUUUUUUUUAAUAUGGGUCAUGAAUAAAGUUGUUUUUGAAA: 0.266
UCAAGUCCUGUGCUACACAUCGUAUGUACCGAAUCGGAAAAAGGAAAAAGGUGGAAAGUAUUAUGUUACGCCGUUCGGAUCUGCACUUCC: -0.414
CUCAAGUCCUGUGCUACACAUCGUAUGUACCGAAUCGGGUUUGGGUGGGUGGGAAAGUAUUAUGUUACGCCGUUCGGAUCUGCACUUCCA: -0.0785
GUCCUGUGCUACACAUCGUAUGUACCGAAUCAAACCCCCCCAAACCCAAACCCCCAAAAAAGUAUUAUGUUACGCCGUUCGGAUCUGCAC: -0.0955
CUCAAGUCCUGUGCUACACAUCGUAUGUACCGAAUCGGGGCCGGCCGGCCGGGAAAGUAUUAUGUUACGCCGUUCGGAUCUGCACUUCCA: 0.786
GCAGGAAGUAAAAACAAAUGGAAAUGCUUCGGAUAGUGGCAGGGGUGGGGGUUGCUAAGGAAAGGGAGGGAUGGGAGUGGGUAAAGAGUU: -0.077
CACAGACAACAUGCACCCACACAGACACAGAGGGAAGGGGUUGGGAUGGGGACAGGGUGCACAGCAGGGCGGGGUAGGACCCCAGCCCCU: -0.519
CCUGUGCUACACAUCGUAUGUACCGAAUCGGGAAAAAAAGGAAAAAAAGGGAAAAAAAGGGAAAGUAUUAUGUUACGCCGUUCGGAUCUG: 0.079
UGUGCUACACAUCGUAUGUACCGAAUCGGGGUUUUUUUGGGGAAAAAAAGGGGAAAAAGGGGAAAGUAUUAUGUUACGCCGUUCGGAUCU: -0.944

Series 2 — technique: protein-binding microarray; form: hairpin DNA; sample: in vitro; tested at: not given; reference: not given; reading: higher = stronger binding; measurement: median fluorescence
Target: Runt-related transcription factor 3, Runt domain (RUNX3, Homo sapiens, UniProt Q13761, residues 53-186)
UniProt Q13761, sequence (53-186, looked up): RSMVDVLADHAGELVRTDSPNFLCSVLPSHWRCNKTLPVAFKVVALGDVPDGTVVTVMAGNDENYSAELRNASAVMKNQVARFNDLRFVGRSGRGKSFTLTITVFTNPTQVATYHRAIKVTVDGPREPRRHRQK
Setting: whole hairpin DNA, median over replicate spots
GAGGCCCGTTGCGGTTGGCCTCCTGGCCAACCGCAACGGGCCTCACACTC: 9030 a.u.
GAGGCCTGCCGCGGTTGGCCTCCTGGCCAACCGCGGCAGGCCTCACACTC: 6000 a.u.
GAGGCCTGTCGCGCTTGGCCTCCTGGCCAAGCGCGACAGGCCTCACACTC (5mC at 14): 5020 a.u.
GAGGCCTGTTGCGGTGGGCCTCCTGGCCCACCGCAACAGGCCTCACACTC (5mC at 29): 6080 a.u.
GAGGCCTGTTGTAGTTGGCCTCCTGGCCAACTACAACAGGCCTCACACTC: 3730 a.u.
GAGGCCCAACCGCACCAGCCTCCTGGCTGGTGCGGTTGGGCCTCACACTC: 7030 a.u.
GAGGCCTGTTGCGCTTGGCCTCCTGGCCAAGCGCAACAGGCCTCACACTC: 4750 a.u.
GAGGCCTCTTGCGGTTGGCCTCCTGGCCAACCGCAAGAGGCCTCACACTC: 8780 a.u.
CTCAGTTCTGTCGGCTGGACTCCTGTCCAGCCGACAGAACTGAGACACTC (5mC at 12 32): 3770 a.u.
GAGGCCTGTTGCGGCGGGCCTCCTGGCCCGCCGCAACAGGCCTCACACTC (5mC at 15): 6040 a.u.
GAGGCCTGTCGCGGTTGGCCTCCTGGCCAACCGCGACAGGCCTCACACTC (5mC at 10 32 34): 5090 a.u.
GAGGCCCGTTGTGGTTGGCCTCCTGGCCAACCACAACGGGCCTCACACTC: 5800 a.u.
GAGGCCCAACCGGAACAGCCTCCTGGCTGTTCCGGTTGGGCCTCACACTC: 4940 a.u.
GAGGCCCAACCGCAACCGCCTCCTGGCGGTTGCGGTTGGGCCTCACACTC: 9750 a.u.

Series 3 — technique: protein-binding microarray; form: double-stranded DNA, one strand shown; sample: in vitro; tested at: 940 nM top; setting: 60-bp whole probe; added: salmon DNA 0.4 mg/ml; reference: random background probes; reading: higher = stronger binding; measurement: fitted relative affinity; shared flanks, not repeated: GCCTAGCAC … GTCTTGATTCGCTTGACGCTGCTG
Target: Interferon regulatory factor 5, full length, phosphomimetic (IRF5, Homo sapiens, UniProt Q13568-2, residues 1-514, S451D/S453D/S456D/S462D)
TTCGATTTCGGGACTGGATTAGTGCTA: 0.804 z-score
AGAGATTTCAGGAATTGAAAAGTGCTA: -0.437 z-score
CATTTTCTAAATTCCCTAGTGTGCTAG: 0.704 z-score
TCATCGATTTCTCTTTCCACTGTGCTA: 1.38 z-score
TTAGGTATCGACTATCGGTTTGTGCTA: 6.65 z-score
AAGCTTCTGGTCTTCTGGACGTGCTAG: -0.0504 z-score
GACGGTATCGGACTGGGCACGTGCTAG: 2.1 z-score
GACGGTTGCGGGTATCGGGACGTGCTA: 1.19 z-score
GACGTTTTCCTACTGCTGACGTGCTAG: 0.558 z-score
TTTGGTATCCTTCTCCTTTAGTGCTAG: 1.51 z-score
TTAGATTTCAGAATCGATTAGTGCTAG: 0.526 z-score
CTCTTCTTTTTTTTCTTTAAGTGCTAG: 2.03 z-score
TTAGGAGTGGTACATGAAGCGTGCTAG: -0.753 z-score
TTAGGTATCGGACTGAGTTAGTGCTAG: 3.43 z-score
ACCCTTGAGTGGTCCAGAGTGTGCTAG: -0.473 z-score
TTAGATCTCAGTATCGATCAGTGCTAG: 4.2 z-score
GACGATTTCGGGTTTAGAGACGTGCTA: 0.855 z-score
GACGATATCAGACTGGAGCCGTGCTAG: -0.59 z-score
TACGGTTTCGGTTCCGGGACGTGCTAG: 12.7 z-score

Series 4 — technique: universal PBM; form: double-stranded DNA, one strand shown; sample: in vitro; tested at: 600 nM; reading: higher = stronger binding; measurement: E-score
Target: Sal-like protein 4, full length isoform A (SALL4, Homo sapiens, UniProt Q9UJQ4, residues 1-1053)
UniProt Q9UJQ4, sequence (whole entry, looked up): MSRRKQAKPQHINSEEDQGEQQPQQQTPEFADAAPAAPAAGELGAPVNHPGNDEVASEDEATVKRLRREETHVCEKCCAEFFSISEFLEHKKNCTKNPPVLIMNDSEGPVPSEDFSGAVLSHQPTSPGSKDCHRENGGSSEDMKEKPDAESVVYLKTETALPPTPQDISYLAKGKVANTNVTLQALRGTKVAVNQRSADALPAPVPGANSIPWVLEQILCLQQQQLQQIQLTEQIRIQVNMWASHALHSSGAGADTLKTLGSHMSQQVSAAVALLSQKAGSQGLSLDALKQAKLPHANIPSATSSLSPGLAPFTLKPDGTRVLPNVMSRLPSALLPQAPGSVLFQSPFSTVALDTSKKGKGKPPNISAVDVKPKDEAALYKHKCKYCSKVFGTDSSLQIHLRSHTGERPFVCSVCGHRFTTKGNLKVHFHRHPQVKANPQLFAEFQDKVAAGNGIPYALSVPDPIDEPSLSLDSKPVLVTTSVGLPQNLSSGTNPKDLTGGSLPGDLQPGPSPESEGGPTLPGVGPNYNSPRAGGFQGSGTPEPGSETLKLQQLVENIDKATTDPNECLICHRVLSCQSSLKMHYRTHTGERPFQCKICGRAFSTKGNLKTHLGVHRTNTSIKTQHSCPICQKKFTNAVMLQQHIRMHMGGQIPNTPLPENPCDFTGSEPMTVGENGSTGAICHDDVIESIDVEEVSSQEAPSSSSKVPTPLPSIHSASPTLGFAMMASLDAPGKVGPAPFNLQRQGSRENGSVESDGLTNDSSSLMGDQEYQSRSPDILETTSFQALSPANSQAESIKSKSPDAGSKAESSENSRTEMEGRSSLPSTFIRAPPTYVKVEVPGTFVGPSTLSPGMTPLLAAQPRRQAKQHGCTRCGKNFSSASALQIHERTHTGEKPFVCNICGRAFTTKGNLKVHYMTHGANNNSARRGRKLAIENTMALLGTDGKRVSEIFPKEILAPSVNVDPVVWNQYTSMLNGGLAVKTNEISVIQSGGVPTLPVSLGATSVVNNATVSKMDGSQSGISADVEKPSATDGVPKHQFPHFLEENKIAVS
Setting: 8-mer, flanks averaged, mean of replicates
CAGTGCAC: -0.205
CTCTCTTA: 0.0988
CTTTACTA: 0.204
AAGCGTCG: -0.164
ACGGATGA: -0.0983
GACGGAAC: -0.156
GCCCAGAC: -0.404
AGGGGCGG: -0.283
CCACCCGG: -0.316
AATCTTTA: 0.269
ACGCAGAA: 0.013
CCACCAAA: 0.037
GGGTTTAC: -0.0416
AAAGGACA: 0.0946
CCACGTAG: -0.294
CATCTACG: 0.104
ATATCGGC: 0.0245
AAGTCGGC: -0.273
CTCTCGAC: -0.175
GAGTTAGC: 0.0456
CATCTCCA: -0.0993
GATTTCTA: 0.223
CACTCATG: 0.089
CATGGAGA: 0.00729
AACGATCT: -0.0297

Series 5 — technique: aptamer microarray, sandwich; form: DNA with 2'F-ANA; sample: in vitro; tested at: 200 nM; added: Cy3 exosite-II aptamer, 400 nM; reading: higher = stronger binding; measurement: mean fluorescence intensity; strand: GGTTGGTGTGGTTGG
Target: Prothrombin, mature alpha-thrombin (F2, Homo sapiens, UniProt P00734)
Setting: whole 15-mer aptamer, many near background
2'F-ANA at 3 5 7 8 9 10: 58.6 a.u.
2'F-ANA at 2 4 6 9 10 11 13 15: 182 a.u.
2'F-ANA at 2 3 4 5 6 9 11 12 13: 97.1 a.u.
2'F-ANA at 7 13 15: 500 a.u.
2'F-ANA at 1 2 6 7 10 11 15: 73.8 a.u.
2'F-ANA at 4 5 7 9 10 11 12: 49.4 a.u.
2'F-ANA at 1 2 4 5 6 8 9 10 13: 48.8 a.u.
2'F-ANA at 1 3 5 7 8 10 11 12 13 14 15: 47.5 a.u.
2'F-ANA at 6 13 14 15: 164 a.u.
2'F-ANA at 2 4 5 7 8 9 10 12 13 14 15: 47.8 a.u.
2'F-ANA at 1 2 6 7 9 13 14: 55.5 a.u.
2'F-ANA at 2 3 4 10 11 15: 321 a.u.
2'F-ANA at 5 6 8 9 11 12 13 14 15: 49.7 a.u.
2'F-ANA at 1 2 4 5 6 7 9 10 11 12 13 15: 57.4 a.u.
2'F-ANA at 4 5 6 7 9 10 11 12 13 15: 45.4 a.u.
2'F-ANA at 1 4 5 6 8 14 15: 54.7 a.u.
2'F-ANA at 1 4 5 9 10 11 12 13 14 15: 47.6 a.u.
2'F-ANA at 1 3 4 5 8 9 10 12 14 15: 111 a.u.
2'F-ANA at 1 2 8 10 12 13 15: 63.2 a.u.
2'F-ANA at 8 9 10 11 12 13: 184 a.u.
2'F-ANA at 1 2 4 10 11 12 14: 46.7 a.u.
2'F-ANA at 1 3 5 6 8 9 11 12 14: 66 a.u.
2'F-ANA at 1 2 4 5 6 9 12 13: 72.4 a.u.

Series 6 — target: CCNB1, cyclin fold, Cln2 fusion (human); technique: yeast growth competition, sequencing; sample: yeast; setting: weak parent motif; reference: not given; reading: higher = stronger binding; measurement: normalised enrichment score
Starting sequence: NPAT docking peptide (human); PCHRRVLCFDSTT
F9L: -0.144
C2A: 0.558
T13A: -0.0323
R5A: 0.125
V6A: 0.728
C8A: 0.677
D10A: 0.359

Series 7 — technique: DHFR PCA, deep sequencing; sample: yeast; added: (+)-ABA 200 µM; reference: wild-type fitted maximum; reading: higher = stronger binding; measurement: relative binding score
Target: ABI1, truncated, D143A, DHFR fusion (Arabidopsis thaliana)
Setting: methotrexate growth selection, single substitutions
Starting sequence: PYL1, truncated, DHFR fusion (Arabidopsis thaliana); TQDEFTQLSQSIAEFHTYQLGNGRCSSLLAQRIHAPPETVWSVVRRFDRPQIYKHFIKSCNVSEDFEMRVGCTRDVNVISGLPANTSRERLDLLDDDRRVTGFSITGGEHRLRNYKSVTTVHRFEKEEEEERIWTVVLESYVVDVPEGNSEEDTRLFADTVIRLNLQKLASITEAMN; partner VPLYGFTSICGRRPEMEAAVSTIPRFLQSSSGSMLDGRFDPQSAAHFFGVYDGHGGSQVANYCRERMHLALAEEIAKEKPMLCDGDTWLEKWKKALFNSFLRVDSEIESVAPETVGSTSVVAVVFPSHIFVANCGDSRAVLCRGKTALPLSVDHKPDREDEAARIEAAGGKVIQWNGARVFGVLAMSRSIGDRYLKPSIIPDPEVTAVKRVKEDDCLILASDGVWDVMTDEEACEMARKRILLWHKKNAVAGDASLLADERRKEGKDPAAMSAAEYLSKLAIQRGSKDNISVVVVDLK
V136G: 19.2%
V44N: -18.4%
R113P: 34.7%
V121R: 2.71%
N61A: 104%
I52F: 101%
Y18H: 107%
K54D: 4.99%
Q10S: 99.9%
R46H: 71.9%
G148F: 66.6%
V76Y: 90.3%
C72Y: 86.4%
I172M: 89.5%
E14D: 96.2%
E152L: 91.5%
V43W: 36.7%

Some of these lines once more (series 6):
F9L: -0.144
C2A: 0.558
T13A: -0.0323
R5A: 0.125
V6A: 0.728
C8A: 0.677
D10A: 0.359
